Results from different studies.
Lines come from different studies, so protocols differ. Values joined by “and” are separate records of one study, mostly repeats; a detail may differ. ± gives the spread as reported. Converted amounts (≈) assume the structure as drawn.
UniProt Q9Y6L6, sequence (whole entry, looked up): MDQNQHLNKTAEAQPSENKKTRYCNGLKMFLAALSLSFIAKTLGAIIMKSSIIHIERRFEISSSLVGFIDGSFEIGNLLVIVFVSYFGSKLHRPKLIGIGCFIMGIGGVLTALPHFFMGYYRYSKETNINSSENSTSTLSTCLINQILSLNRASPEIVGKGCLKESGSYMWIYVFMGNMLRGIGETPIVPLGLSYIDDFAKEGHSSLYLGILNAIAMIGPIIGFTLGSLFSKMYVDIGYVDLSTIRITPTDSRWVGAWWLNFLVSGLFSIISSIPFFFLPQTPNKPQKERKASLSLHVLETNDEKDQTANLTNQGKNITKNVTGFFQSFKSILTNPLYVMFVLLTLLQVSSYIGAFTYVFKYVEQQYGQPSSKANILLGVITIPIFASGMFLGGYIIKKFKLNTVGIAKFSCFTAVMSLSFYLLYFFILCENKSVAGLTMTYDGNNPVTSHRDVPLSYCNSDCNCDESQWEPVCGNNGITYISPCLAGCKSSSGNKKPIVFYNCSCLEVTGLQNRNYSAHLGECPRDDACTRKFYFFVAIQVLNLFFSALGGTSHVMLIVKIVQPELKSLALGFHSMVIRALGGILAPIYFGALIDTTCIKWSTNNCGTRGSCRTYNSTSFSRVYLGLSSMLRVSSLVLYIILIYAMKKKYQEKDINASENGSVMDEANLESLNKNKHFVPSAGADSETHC

With `Cc1cc(C)c2nc3c(Br)cc(Br)c(O)c3nc2c1` the logP was 1.2 ± 0.23 (UV-vis; octanol/water).
The growth-inhibiting concentration of `O=C(O)CCCOc1ccc(O)cc1-c1cc(-c2ccccc2C(F)(F)F)n(-c2ccccc2)n1` is reported as no less than 2500 µg/plate (Salmonella typhimurium; Ames test; TA100; concentration not given, without S9 metabolic activation).
`Nc1ccccc1C(=O)OCC#CCOC(=O)c1ccccc1N` has an IC50 of greater than 50 µM (THLE-2; MTT; 72 h).
With `CC1(C)CC(=O)C2=C(C1)Oc1ccccc1C2C1C(=O)NC(=O)NC1=O` (centres unmarked) the viability was 81.2% (3T3-L1 mature adipocytes; MTT; IC20, 6 days, lipolysis conditions; baseline: untreated).
With `Cc1cc(-c2ccc3ccccc3c2)nnc1NCCN1CCN(C)CC1` the inhibition was 3% (Solute carrier organic anion transporter family member 1B1 (SLCO1B1, Homo sapiens, UniProt Q9Y6L6); transporter uptake, inhibitor; 10 µM).
For `COc1ccc(-n2cc(C(=O)N3C[C@]4(OC(=O)c5ccccc5NC(C)=O)CC[C@H](OC)[C@@]56[C@@H]4C[C@@H]([C@@H]35)[C@@]3(O)C[C@H](OC)[C@H]4C[C@@H]6[C@]3(O)[C@H]4OC)nn2)cc1`, the Vss was 14.4 L/kg (rat Sprague-Dawley, plasma; intravenous, 2 mg/kg).
The selectivity index of `Cc1cc(/C=C/C#N)cc(C)c1Oc1nc(NC2CCN(Cc3ccc(S(C)(=O)=O)cc3)CC2)nc2ncccc12` is reported as 15000 (HIV-1; MT4, IIIB wild type; baseline: CC50 over EC50).
`CC[C@H](C)[C@H](NC(=O)[C@H](CCCCN)NC(=O)[C@H](CCCCN)NC(=O)[C@H](Cc1ccccc1)NC(=O)[C@H](Cc1ccccc1)NC(=O)[C@H](CCCCN)NC(=O)[C@H](CCCCN)NC(=O)[C@H](Cc1ccccc1)NC(=O)[C@H](CCCNC(=N)N)NC(=O)[C@@H](N)CCCCN)C(=O)N[C@@H](CCCCN)C(=O)N[C@@H](CCCCN)C(=O)N[C@@H](CO)C(=O)N[C@H](C(=O)N[C@@H](CCCCN)C(=O)N[C@@H](CCCCN)C(=O)N[C@@H](CCCNC(=N)N)C(=O)N[C@H](C(=O)N[C@@H](CCCCN)C(=O)N[C@@H](CCCCN)C(=O)N[C@@H](CC(C)C)C(=O)N[C@@H](Cc1ccccc1)C(=O)N[C@@H](CCCCN)C(=O)N[C@@H](CCCCN)C(=O)N1CCC[C@H]1C(=O)N[C@@H](CCCNC(=N)N)C(=O)N[C@H](C(=O)N[C@H](C(=O)N1CCC[C@H]1C(=O)N[C@H](C(=O)N[C@@H](CO)C(=O)N[C@H](C(=O)N1CCC[C@H]1C(=O)N[C@@H](Cc1ccccc1)C(=O)O)[C@@H](C)CC)[C@@H](C)CC)[C@@H](C)CC)C(C)C)C(C)C)C(C)C` has an MIC of 16 µg/mL (≈ 3.79 µM) (Pseudomonas aeruginosa; P1, mouse serum; 2 h, 37 °C).
`COc1cc2c(cc1NC(=O)c1cncn1C)C[C@H]1[C@H]3CCCC[C@@]23CCN1C` gave a Papp A→B of 9.71 ×10⁻⁶ cm/s (Caco-2; 10 µM, pH 6.5).
`O=C(NS(=O)(=O)c1cccs1)c1cc2ccccc2n1Cc1ccc(Br)c2ccccc12` gave a body weight of 26.5 g (KM mouse, chronic hyperuricaemia model; dose not given, day 2).
For `O=C1NC2(CC2)COc2ncc(F)cc2[C@H]2COCCN2c2ccn3ncc1c3n2`, the basophil percentage was 0.07 ± 0.07% (Sprague-Dawley rats, male, blood; oral, 2.5 mg/kg/day, end of treatment, 4-week subacute toxicity).
Under “initial peak SUV”, `NC[C@]1(CC(=O)O)CC[C@@H]([18F])CC1` is recorded as 0.4 (PET; rhesus monkey, brain; intravenous, 3.8 min, baseline scan).
With `CC(=O)NCCCC[C@@H]1NC(=O)[C@H](Cc2c[nH]c3c(C)cccc23)NC(=O)[C@H]([C@@H](C)O)NC(=O)[C@H](CC(N)=O)NC(=O)[C@@H](NC(C)=O)C(C)(C)SSC(C)(C)[C@@H](C(=O)N[C@@H](Cc2ccc(OCCN)cc2)C(=O)N[C@@H](Cc2ccc3ccccc3c2)C(=O)NC2(C(=O)N[C@@H](CCC(=O)O)C(=O)N[C@@H](CC(N)=O)C(=O)N[C@@H](Cc3cccnc3)C(=O)N(C)CC(N)=O)CCOCC2)NC1=O` the protein binding was 8.49 ± 1.69% (human alpha-1-acid glycoprotein 0.14%; equilibrium dialysis; 1 µM).
`CC[C@H](C)[C@H](NC(=O)[C@H](CCCCN)NC(=O)CNC(=O)[C@H](CC(C)C)NC(=O)[C@H](Cc1ccccc1)NC(=O)[C@H](CCCCN)NC(=O)[C@H](CO)NC(=O)[C@H](Cc1ccccc1)NC(=O)[C@H](Cc1c[nH]c2ccccc12)NC(=O)[C@H](CCC(N)=O)NC(=O)[C@@H](NC(=O)[C@H](Cc1ccccc1)NC(=O)CCCCCNC(=O)CN1CCN(CC(=O)O)CCN(CC(=O)O)CCN(CC(=O)O)CC1)C(C)C)C(=O)N[C@@H](CCC(=O)O)C(=O)N1CCC[C@H]1C(=O)N[C@@H](CC(=O)O)C(=O)N[C@H](C(=O)N[C@@H](CO)C(=O)N[C@@H](CCC(N)=O)C(=O)N[C@H](C(=O)N[C@@H](CCC(N)=O)C(=O)N[C@@H](CC(=O)O)C(=O)N1CCC[C@H]1C(=O)N[C@@H](CC(N)=O)C(=O)N[C@@H](CC(=O)O)C(=O)N[C@@H](CCC(N)=O)C(=O)N[C@@H](Cc1ccc(O)cc1)C(=O)N[C@@H](CCC(=O)O)C(=O)N1CCC[C@H]1C(=O)N[C@@H](Cc1ccccc1)C(=O)O)C(C)C)C(C)C` [copper-64 labelled] has a tissue uptake of 22.8 ± 1.3 %ID/g (C57BL/6 mice, male, tumour-free, liver; 4 h).
For `CNC(=O)C[C@H](Cc1ccncc1)NC(=O)[C@@H](Cc1cccc(Br)c1)NC(=O)[C@@H](N)Cc1ccsc1`, the viability was 0.999 and 1.1 and 0.955 (Huh-7-ACE2; CellTiter-Glo; 0.0977 µM, 48 h, unit not given; baseline: DMSO).
With `CC1(F)CN(C(=O)Cn2c(=O)c(C(=O)NCc3ccc(Cl)cc3)cc3nc(N4CCN(CCN)C4=O)cnc32)C1` the selectivity index was greater than 189 (human cytomegalovirus; plaque reduction; AD169 US3-6-EGFP; baseline: CC50 over EC50).
The revertant colonies of `Cc1nc2cccc(OCC(C)(C)C(=O)NC(C)C)c2c(N)c1C(=O)[O-].[Na+]` is reported as 17 ± 8 colonies/plate (Salmonella typhimurium; Ames preincubation; TA1535; 0.80 mg/plate, added: without rat liver S9).

Excerpt of the above:
For `CNC(=O)C[C@H](Cc1ccncc1)NC(=O)[C@@H](Cc1cccc(Br)c1)NC(=O)[C@@H](N)Cc1ccsc1`, the viability was 0.999 and 1.1 and 0.955 (Huh-7-ACE2; CellTiter-Glo; 0.0977 µM, 48 h, unit not given; baseline: DMSO).
For `O=C1NC2(CC2)COc2ncc(F)cc2[C@H]2COCCN2c2ccn3ncc1c3n2`, the basophil percentage was 0.07 ± 0.07% (Sprague-Dawley rats, male, blood; oral, 2.5 mg/kg/day, end of treatment, 4-week subacute toxicity).
